Measurements gathered from unrelated publications.
Each numbered part is a random draw from the data of one study; scales do not carry over between parts.
Sequence of UniProt Q8NFD2 (whole entry, looked up): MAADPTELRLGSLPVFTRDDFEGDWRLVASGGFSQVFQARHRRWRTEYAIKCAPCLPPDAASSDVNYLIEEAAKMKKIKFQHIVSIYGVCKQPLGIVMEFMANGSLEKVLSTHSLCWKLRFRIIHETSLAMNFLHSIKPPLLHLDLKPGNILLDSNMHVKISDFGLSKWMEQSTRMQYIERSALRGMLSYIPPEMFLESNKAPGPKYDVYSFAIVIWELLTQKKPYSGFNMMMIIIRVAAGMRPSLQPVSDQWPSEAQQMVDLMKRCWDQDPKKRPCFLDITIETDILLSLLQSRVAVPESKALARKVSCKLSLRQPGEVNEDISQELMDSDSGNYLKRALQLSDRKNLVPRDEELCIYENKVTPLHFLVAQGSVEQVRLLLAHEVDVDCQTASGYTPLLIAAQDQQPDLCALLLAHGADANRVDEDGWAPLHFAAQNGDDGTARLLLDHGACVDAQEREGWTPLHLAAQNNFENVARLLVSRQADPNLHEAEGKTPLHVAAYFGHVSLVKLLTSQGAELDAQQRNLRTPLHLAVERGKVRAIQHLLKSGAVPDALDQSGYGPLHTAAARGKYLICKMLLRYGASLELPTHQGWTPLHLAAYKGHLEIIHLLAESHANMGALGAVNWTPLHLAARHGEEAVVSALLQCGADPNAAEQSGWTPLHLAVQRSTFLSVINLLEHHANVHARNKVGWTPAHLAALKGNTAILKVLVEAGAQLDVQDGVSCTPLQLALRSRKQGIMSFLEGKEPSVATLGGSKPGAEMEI
Sequence of UniProt Q52WX2 (whole entry, looked up): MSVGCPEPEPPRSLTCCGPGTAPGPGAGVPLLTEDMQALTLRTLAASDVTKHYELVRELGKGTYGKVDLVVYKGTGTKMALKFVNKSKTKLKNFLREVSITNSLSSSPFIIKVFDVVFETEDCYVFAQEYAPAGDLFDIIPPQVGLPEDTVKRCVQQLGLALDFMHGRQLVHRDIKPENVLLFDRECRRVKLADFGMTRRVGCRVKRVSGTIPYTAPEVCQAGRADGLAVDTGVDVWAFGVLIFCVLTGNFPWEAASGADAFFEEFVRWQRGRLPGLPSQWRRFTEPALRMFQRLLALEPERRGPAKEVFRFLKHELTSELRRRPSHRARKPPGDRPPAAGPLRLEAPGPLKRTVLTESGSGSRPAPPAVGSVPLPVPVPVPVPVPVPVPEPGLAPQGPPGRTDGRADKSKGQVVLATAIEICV
Sequence of UniProt O75582 (whole entry, looked up): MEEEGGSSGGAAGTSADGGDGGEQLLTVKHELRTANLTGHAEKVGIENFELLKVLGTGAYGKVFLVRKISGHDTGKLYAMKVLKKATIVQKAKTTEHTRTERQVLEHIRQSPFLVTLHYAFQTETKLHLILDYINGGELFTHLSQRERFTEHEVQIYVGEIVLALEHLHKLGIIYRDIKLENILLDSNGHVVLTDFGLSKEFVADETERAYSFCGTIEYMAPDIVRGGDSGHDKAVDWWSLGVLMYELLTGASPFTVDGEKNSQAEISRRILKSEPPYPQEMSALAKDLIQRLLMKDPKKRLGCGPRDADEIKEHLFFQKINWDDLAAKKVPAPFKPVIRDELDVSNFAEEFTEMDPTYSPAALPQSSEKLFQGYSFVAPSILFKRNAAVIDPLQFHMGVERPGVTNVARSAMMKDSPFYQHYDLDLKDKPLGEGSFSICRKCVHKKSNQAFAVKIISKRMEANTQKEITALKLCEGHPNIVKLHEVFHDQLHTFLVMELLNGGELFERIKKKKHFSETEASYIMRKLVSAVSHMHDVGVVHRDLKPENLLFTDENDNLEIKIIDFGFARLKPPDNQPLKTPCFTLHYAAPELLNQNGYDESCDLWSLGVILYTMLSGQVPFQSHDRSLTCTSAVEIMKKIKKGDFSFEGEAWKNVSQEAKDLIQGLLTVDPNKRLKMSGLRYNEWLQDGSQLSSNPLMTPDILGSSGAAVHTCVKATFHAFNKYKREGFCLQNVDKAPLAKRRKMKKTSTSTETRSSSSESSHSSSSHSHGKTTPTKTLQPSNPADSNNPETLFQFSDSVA
Sequence of UniProt Q8IVH8 (whole entry, looked up): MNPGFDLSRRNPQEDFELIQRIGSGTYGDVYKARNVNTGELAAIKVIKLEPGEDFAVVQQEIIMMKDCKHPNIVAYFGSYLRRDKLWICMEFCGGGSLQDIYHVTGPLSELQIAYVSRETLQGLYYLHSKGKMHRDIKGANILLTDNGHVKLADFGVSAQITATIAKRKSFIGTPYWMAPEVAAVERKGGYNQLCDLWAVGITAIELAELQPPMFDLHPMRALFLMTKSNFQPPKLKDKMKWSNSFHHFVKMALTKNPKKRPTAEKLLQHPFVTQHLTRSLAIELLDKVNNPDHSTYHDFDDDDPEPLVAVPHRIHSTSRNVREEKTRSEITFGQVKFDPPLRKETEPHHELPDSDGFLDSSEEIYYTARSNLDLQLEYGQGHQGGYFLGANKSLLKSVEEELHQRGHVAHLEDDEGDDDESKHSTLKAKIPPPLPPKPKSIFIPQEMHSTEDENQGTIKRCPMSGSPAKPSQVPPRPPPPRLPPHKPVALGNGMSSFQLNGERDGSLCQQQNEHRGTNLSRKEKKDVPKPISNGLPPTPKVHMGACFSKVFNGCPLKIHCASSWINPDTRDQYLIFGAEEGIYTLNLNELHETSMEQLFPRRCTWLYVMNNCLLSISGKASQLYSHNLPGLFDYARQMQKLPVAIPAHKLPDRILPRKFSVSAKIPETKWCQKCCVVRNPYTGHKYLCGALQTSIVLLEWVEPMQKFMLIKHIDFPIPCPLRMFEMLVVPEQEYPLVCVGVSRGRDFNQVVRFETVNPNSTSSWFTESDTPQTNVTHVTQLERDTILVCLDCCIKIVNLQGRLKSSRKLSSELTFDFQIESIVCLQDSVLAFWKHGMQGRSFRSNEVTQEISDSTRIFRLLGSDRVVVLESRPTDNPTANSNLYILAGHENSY
Sequence of UniProt P27361 (whole entry, looked up): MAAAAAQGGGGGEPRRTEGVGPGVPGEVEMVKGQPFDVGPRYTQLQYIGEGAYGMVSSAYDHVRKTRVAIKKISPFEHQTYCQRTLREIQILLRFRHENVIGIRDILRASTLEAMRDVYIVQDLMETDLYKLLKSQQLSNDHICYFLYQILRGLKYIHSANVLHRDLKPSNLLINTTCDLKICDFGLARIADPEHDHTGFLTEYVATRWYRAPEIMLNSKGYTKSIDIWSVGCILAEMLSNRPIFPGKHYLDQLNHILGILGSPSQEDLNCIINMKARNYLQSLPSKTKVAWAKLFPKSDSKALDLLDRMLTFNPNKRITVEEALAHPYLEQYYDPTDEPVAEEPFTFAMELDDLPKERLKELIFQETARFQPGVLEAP
Sequence of UniProt O14757 (whole entry, looked up): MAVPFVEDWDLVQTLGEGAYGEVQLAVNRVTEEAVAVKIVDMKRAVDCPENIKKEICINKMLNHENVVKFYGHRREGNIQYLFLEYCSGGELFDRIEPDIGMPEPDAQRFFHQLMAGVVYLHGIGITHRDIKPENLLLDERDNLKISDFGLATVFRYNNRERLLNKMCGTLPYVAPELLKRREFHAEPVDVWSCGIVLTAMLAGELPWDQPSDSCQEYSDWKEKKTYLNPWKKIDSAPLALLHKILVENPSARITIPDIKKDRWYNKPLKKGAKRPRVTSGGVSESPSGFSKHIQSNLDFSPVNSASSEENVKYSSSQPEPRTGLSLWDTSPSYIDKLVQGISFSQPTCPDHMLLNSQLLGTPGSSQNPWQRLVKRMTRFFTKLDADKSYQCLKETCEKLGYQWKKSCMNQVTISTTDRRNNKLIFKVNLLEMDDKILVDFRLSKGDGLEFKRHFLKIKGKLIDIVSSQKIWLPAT
Sequence of UniProt P53350 (whole entry, looked up): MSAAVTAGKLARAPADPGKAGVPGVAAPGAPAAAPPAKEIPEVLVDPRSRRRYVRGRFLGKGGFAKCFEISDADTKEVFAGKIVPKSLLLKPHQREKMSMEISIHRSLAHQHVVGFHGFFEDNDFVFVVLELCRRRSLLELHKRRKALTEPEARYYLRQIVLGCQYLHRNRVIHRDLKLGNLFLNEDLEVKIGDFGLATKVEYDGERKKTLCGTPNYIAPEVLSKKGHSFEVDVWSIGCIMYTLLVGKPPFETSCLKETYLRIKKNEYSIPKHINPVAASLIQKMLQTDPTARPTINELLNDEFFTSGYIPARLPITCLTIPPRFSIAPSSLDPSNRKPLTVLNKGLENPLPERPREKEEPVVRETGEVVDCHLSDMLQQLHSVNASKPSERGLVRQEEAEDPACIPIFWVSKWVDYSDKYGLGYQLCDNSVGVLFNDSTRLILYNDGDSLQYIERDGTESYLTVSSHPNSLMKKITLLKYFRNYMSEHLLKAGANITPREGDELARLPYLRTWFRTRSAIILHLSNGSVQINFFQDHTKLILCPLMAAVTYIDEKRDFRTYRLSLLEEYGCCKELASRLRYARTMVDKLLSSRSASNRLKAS

Set 1
Cell line: Huh-7
Tested at: 10 µM
Time: 24 h
For `Nc1ccc(S(=O)(=O)Nc2ccc(Cl)nn2)cc1`, the viability was 94.6%.
With `CC(=O)OCC(=O)[C@@]1(O)[C@H](C)C[C@H]2[C@@H]3CCC4=CC(=O)C=C[C@]4(C)[C@@]3(F)[C@@H](O)C[C@@]21C` the viability was 99.7%.
The viability of `Nc1cc(N2CCCCC2)nc(N)[n+]1[O-]` is reported as 97.8%.
The viability of `CC1CC(OC(=O)c2ccccc2O)CC(C)(C)C1` (stereo not drawn) is reported as 101%.

Set 2
Species: mouse
Matrix: microsomes or S9
Tested at: 2 µM
Time: 0.5 h
With `O=c1[nH]cccc1-c1nc(-c2cccc(Br)c2)no1` the remaining compound was 11.3%.
The remaining compound of `NS(=O)(=O)c1ccc(CNc2nc(Cl)nc3[nH]cnc23)cc1` is reported as 91%.
The remaining compound of `COc1ccc(OC)c(N2C(=O)c3cc4occc4n3CC2(C)C(=O)NC2CCCCCC2)c1` (stereo not drawn) is reported as 0.302%.
`COc1ccc(CCC(=O)N[C@@H]2CN(S(C)(=O)=O)C[C@H]2CN(C)C)cc1` gave a remaining compound of 93.7%.
For `Cc1ccc(C(C)C)c(OCCNS(C)(=O)=O)c1`, the remaining compound was 63.5%.

Set 3
SMILES: Cc1c(NC(=O)c2cc(C(N)=O)nc3cc(F)ccc23)c(C(F)(F)F)nn1Cc1ccc(C#N)cc1
Technique: competition with immobilised ligand
Tested at: 1 µM
It gave 85% for remaining binding (STK35 (Homo sapiens, UniProt Q8TDR2); cell-free assay).
It gave 84% for remaining binding (BMPR1A (Homo sapiens, UniProt P36894); binding).
The remaining binding was 85% (MAPK3 (Homo sapiens, UniProt P27361); cell-free assay).
It gave 81% for remaining binding (PIK3CA (Homo sapiens, UniProt P42336, E545A); cell-free assay).
It gave 99% for remaining binding (PKMYT1 (Homo sapiens, UniProt Q99640); cell-free assay).
It gave 96% for remaining binding (PTK2 (Homo sapiens, UniProt Q05397); cell-free assay).
For LRRK2 (Homo sapiens, UniProt Q5S007, G2019S); cell-free assay: remaining binding read 100%.
The remaining binding was 80% (ANKK1 (Homo sapiens, UniProt Q8NFD2); cell-free assay).
The remaining binding was 75% (CHEK1 (Homo sapiens, UniProt O14757); cell-free assay).
It gave 75% for remaining binding (EPHB6 (Homo sapiens, UniProt O15197); cell-free assay).
The remaining binding was 88% (BUB1 (Homo sapiens, UniProt O43683); cell-free assay).
For FLT3 (Homo sapiens, UniProt P36888, N841I); cell-free assay: remaining binding read 53%.
Ribosomal protein S6 kinase alpha-5, C-terminal kinase domain (RPS6KA5, Homo sapiens, UniProt O75582); cell-free assay — remaining binding: 100%.
It gave 83% for remaining binding (EGFR (Homo sapiens, UniProt P00533, G719C); cell-free assay).
The remaining binding was 99% (MAP4K3 (Homo sapiens, UniProt Q8IVH8); cell-free assay).
It gave 96% for remaining binding (EPHB3 (Homo sapiens, UniProt P54753); cell-free assay).
TEC (Homo sapiens, UniProt P42680); binding — remaining binding: 85%.
It gave 52% for remaining binding (CDK7 (Homo sapiens, UniProt P50613); cell-free assay).

Set 4
SMILES: CO[C@@H]1[C@H](N(C)C(=O)c2ccccc2)C[C@H]2O[C@]1(C)n1c3ccccc3c3c4c(c5c6ccccc6n2c5c31)C(=O)NC4
Read-out: enzyme activity
Mode: inhibitor
Tested at: 1 µM
It gave 40% for inhibition (SBK1 (Homo sapiens, UniProt Q52WX2)).
SRPK3 (Homo sapiens, UniProt Q9UPE1) — inhibition: 4%.
For CDKL1 (Homo sapiens, UniProt Q00532): inhibition read 57%.
The inhibition was 0% (STK38L (Homo sapiens, UniProt Q9Y2H1)).
The inhibition was 0% (PLK1 (Homo sapiens, UniProt P53350)).

Set 5
Target: Calcium/calmodulin-dependent protein kinase type II subunit alpha (CAMK2A, Homo sapiens, UniProt Q9UQM7)
Sequence of UniProt Q9UQM7 (whole entry, looked up): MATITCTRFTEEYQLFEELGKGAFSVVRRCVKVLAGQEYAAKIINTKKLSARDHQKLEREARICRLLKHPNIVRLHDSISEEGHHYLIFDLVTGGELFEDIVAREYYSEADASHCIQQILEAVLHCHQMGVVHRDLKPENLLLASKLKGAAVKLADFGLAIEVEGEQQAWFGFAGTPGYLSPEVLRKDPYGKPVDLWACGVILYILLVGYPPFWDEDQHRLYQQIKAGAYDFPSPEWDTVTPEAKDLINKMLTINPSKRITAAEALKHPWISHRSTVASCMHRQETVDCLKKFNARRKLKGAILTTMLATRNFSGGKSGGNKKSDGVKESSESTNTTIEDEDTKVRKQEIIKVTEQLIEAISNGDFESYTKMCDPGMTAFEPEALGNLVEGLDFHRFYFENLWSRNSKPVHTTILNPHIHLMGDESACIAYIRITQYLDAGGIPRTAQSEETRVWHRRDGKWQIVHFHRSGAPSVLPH
Read-out: enzyme activity
Mode: inhibitor
Tested at: 10 µM
The inhibition of `COc1cc(/C=C/C(=O)NCCc2ccc(O)cc2)ccc1O` is reported as 18%.
With `c1ccc(Cc2nc3ccccc3[nH]2)cc1` the inhibition was -14%.
`C=C/C(C)=C/C=C/C(C)=C/C=C1/C(C)=CCCC1(C)C` has an inhibition of 2%.
The inhibition of `C#CCN[C@H]1CCc2ccccc21` is reported as -4%.
`CC1(C)CC[C@]2(C)CC[C@]3(C)C(=CC[C@@H]4[C@@]5(C)CC[C@@H](O)[C@](C)(C(=O)O)[C@@H]5CC[C@]43C)[C@@H]2C1` has an inhibition of -18%.
With `Cc1[nH]cnc1CN1CCc2c(c3ccccc3n2C)C1=O` the inhibition was -8%.
The inhibition of `CC(C)(O)[C@@H]1Cc2c(ccc3ccc(=O)oc23)O1` is reported as 6%.

A few entries again (set 5):
`CC1(C)CC[C@]2(C)CC[C@]3(C)C(=CC[C@@H]4[C@@]5(C)CC[C@@H](O)[C@](C)(C(=O)O)[C@@H]5CC[C@]43C)[C@@H]2C1` has an inhibition of -18%.
The inhibition of `C#CCN[C@H]1CCc2ccccc21` is reported as -4%.
`C=C/C(C)=C/C=C/C(C)=C/C=C1/C(C)=CCCC1(C)C` has an inhibition of 2%.
The inhibition of `CC(C)(O)[C@@H]1Cc2c(ccc3ccc(=O)oc23)O1` is reported as 6%.
With `Cc1[nH]cnc1CN1CCc2c(c3ccccc3n2C)C1=O` the inhibition was -8%.
The inhibition of `COc1cc(/C=C/C(=O)NCCc2ccc(O)cc2)ccc1O` is reported as 18%.
